Measured values from different studies.
± gives the spread as reported.

SMILES = Cc1[nH]c(/C=C2\C(=O)Nc3ccccc32)c(C)c1CCC(=O)O; system = Japanese patients, plasma; conditions = oral, 1200 mg/m^2, day 29; AUC(0-t) = 25800 ± 2400 ng·h/mL
SMILES = CNC(=O)c1ccc(-c2cnc3ncc(Cc4ccc5ncccc5c4)n3n2)cc1F; system = normal hepatic function; conditions = oral, 200 mg, mean; AUC(0-t) = 6930 ng·h/mL
SMILES = NC(=O)c1cnc2[nH]ccc2c1N[C@@H]1[C@@H]2CC3C[C@H]1C[C@@](O)(C3)C2; system = healthy Japanese men, plasma; conditions = oral, 200 mg, single dose fasted; AUC(0-t) = 2510 ng·h/mL
SMILES = O=C(c1cc(Cl)c(O)c(Cl)c1)N1CS(=O)(=O)c2ccccc21; system = healthy Chinese adults, fasted, plasma; conditions = oral, 1 mg single dose; AUC(0-t) = 1300 ± 268 ng·h/mL
SMILES = Cc1nc(-c2ccc(OCC(C)C)c(C#N)c2)sc1C(=O)O; system = healthy Chinese adult volunteers, plasma; conditions = oral, 80 mg single dose, fed; AUC(0-t) = 14000 ± 4000 ng·h/mL
SMILES = CC(C)=CCC[C@](C)(O[C@@H]1O[C@H](CO)[C@@H](O)[C@H](O)[C@H]1O)[C@H]1CC[C@]2(C)[C@@H]1[C@H](O)C[C@@H]1[C@@]3(C)CC[C@H](O[C@@H]4O[C@H](CO)[C@@H](O)[C@H](O)[C@H]4O)C(C)(C)[C@@H]3CC[C@]12C; test = LC-MS/MS; system = healthy volunteers, serum; conditions = oral, 3 g red ginseng; AUC(0-t) = 4.33 ± 3.25 ng·h/mL
SMILES = C[C@H]1Oc2cc(cnc2N)-c2c(nn(C)c2C#N)CN(C)C(=O)c2ccc(F)cc21; system = healthy adults; conditions = oral tablet, 100 mg single dose, adjusted geometric mean, added: rabeprazole 20 mg; AUC(0-t) = 7950 ng·h/mL
SMILES = Cc1ccc(NC(=O)c2ccc(CN3CCN(C)CC3)cc2)cc1Nc1nccc(-c2cncc(-c3oncc3C)c2)n1; system = healthy volunteers, plasma; conditions = oral, 25.0 mg once daily, day 1, 7-day dosing, mean; AUC(0-t) = 12600 ng·h/mL
SMILES = CC(C)=CCC[C@](C)(O[C@@H]1O[C@H](CO)[C@@H](O)[C@H](O)[C@H]1O)[C@H]1CC[C@]2(C)[C@@H]1[C@H](O)C[C@@H]1[C@@]3(C)CC[C@H](O[C@@H]4O[C@H](CO)[C@@H](O)[C@H](O)[C@H]4O[C@@H]4O[C@H](CO)[C@@H](O)[C@H](O)[C@H]4O)C(C)(C)[C@@H]3CC[C@]12C; test = LC-MS/MS; system = healthy male volunteers, serum; conditions = oral, 3 g fermented red ginseng; AUC(0-t) = 168 ± 75 ng·h/mL

For quick reference, copied from above:
SMILES = Cc1nc(-c2ccc(OCC(C)C)c(C#N)c2)sc1C(=O)O; system = healthy Chinese adult volunteers, plasma; conditions = oral, 80 mg single dose, fed; AUC(0-t) = 14000 ± 4000 ng·h/mL
